Results from different studies.
Compare with care: the assays were run in different laboratories. Numbers after ± are the reported error.
Sequence of UniProt Q00535 (whole entry, looked up): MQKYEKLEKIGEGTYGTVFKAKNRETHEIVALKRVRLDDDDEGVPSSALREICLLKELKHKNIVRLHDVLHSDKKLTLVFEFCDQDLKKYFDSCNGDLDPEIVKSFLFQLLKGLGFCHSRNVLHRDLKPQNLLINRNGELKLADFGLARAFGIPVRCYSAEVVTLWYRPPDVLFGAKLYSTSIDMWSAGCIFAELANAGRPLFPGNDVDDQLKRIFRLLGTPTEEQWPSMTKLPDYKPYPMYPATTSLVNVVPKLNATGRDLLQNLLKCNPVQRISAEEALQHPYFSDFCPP
Sequence of UniProt P08684 (whole entry, looked up): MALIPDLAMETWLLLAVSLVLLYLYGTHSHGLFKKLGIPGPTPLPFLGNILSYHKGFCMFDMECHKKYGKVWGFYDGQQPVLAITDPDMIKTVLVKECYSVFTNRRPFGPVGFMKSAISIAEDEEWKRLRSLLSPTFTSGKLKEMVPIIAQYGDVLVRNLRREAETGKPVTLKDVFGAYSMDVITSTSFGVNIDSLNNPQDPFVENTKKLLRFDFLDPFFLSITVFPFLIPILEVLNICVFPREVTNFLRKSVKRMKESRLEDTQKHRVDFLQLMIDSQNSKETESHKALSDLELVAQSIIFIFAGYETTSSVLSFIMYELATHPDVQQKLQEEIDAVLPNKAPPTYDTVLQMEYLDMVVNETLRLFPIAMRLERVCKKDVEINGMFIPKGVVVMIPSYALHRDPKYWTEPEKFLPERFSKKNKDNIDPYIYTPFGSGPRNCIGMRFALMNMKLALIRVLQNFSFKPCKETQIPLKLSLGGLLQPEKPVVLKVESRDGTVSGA

Cc1noc(C)c1CC(=O)N1CCOc2c(cc(-c3cccnc3)cc2OCC2CCCN(C)C2)C1 (centres unmarked) — EC50 (J774.A1 macrophages; cytotoxicity): > 50 µM
Cc1cc(Nc2ccc(S(F)(F)(F)(F)F)cc2)n2nc(C(C)(F)F)nc2n1 — AUC(0-168 h) (Plasmodium falciparum; LC-MS/MS; malaria patients, plasma; oral, 250 mg): 340 µg·h/mL
CC[C@H]1[C@@H](O)[C@@H]2[C@H](CC[C@]3(C)[C@@H]([C@H](C)CCNC(=O)NS(=O)(=O)c4ccc(C(C)(C)C)cc4)CC[C@@H]23)[C@@]2(C)CC[C@@H](O)C[C@@H]12 — Vd/F mean (Cytochrome P450 3A4 (CYP3A4, Homo sapiens, UniProt P08684); substrate; human, plasma; 10 mg, alone, study day 1): 452 L
COc1cc(-c2nn(CCN3CCC(N(C)C)CC3)c3ncnc(N)c23)ccc1NC(=O)OC(C)(C)C — EC50 (CP-A pre-malignant; cell viability, PrestoBlue; 120 h): 27.8 µM
O=C(c1cc(Cc2n[nH]c(=O)c3ccccc23)ccc1F)N1CCN(C(=O)C2CC2)CC1 — EC50 (UWB1289 (BRCA1 deficient); cell growth, inhibitor, CellTiter-Glo; 7 days): 0.086 µM
Cc1cc(O)cc(C)c1C[C@H](NC(=O)[C@@H]1CCCN1C(=O)[C@H](CCCNC(=N)N)NC(=O)[C@H](CCCNC(=N)N)N(C)C(=O)CNC(=O)[C@@H](CO)NC(=O)CNC(=O)[C@H](Cc1cn(CCNC(=O)[C@H](CC(C)C)NC(=O)[C@H](CC(C)C)NC(=O)C2OC2C(=O)O)nn1)NC(=O)CN1CCN(CC(=O)O)CCN(CC(=O)O)CCN(CC(=O)O)CC1)C(=O)N[C@H](C(=O)N[C@@H](CC(C)C)C(=O)O)C(C)(C)C (mixture of isomers) — fraction unbound (human): 0.918
C[C@]1(c2nc3c(C(N)=O)cccc3[nH]2)CCCN1 — EC50 (MDA-MB-436 (BRCA1 deficient); cell growth, inhibitor, CellTiter-Glo; 7 days): 0.82 µM
CC1=NN(C)CC1c1cc2c(c(OCC3CCCN(C)C3)c1)OCCN(C(=O)Cc1c(C)noc1C)C2 (centres unmarked) — EC50 (J774.A1 macrophages; cytotoxicity): > 50 µM
N.N.O=C([O-])C1(C(=O)[O-])CCC1.[Pt+2] — EC50 (PEO1 platinum-sensitive; cell viability): 58.9 µM
Cc1noc(C)c1CC(=O)N1CCOc2c(cc(CC3CC3)cc2OCC2CCCN(C)C2)C1 (centres unmarked) — EC50 (J774.A1 macrophages; cytotoxicity): > 50 µM
CC(C)c1nc(CN(C)C(=O)N[C@@H](CCN2CCOCC2)C(=O)N[C@H](CC[C@H](Cc2ccccc2)NC(=O)OCc2cncs2)Cc2ccccc2)cs1 — EC50 (ΔE-expressing cells; ΔE mislocalization, high-content imaging): 17.5 µM
CCn1cc(-c2cc(Cn3ccoc3=N)cc3c2CCN([C@@H](C)c2cc(OC)ccn2)C3=O)c(C(F)(F)F)n1 — EC50 (LoVo; cell growth, inhibitor; 120 h): 1.95 µM
Cc1cc(O)cc(C)c1C[C@H](NC(=O)[C@@H]1CCCN1C(=O)[C@H](CCCNC(=N)N)NC(=O)[C@H](CCCNC(=N)N)N(C)C(=O)CNC(=O)[C@@H](CO)NC(=O)CNC(=O)[C@H](Cc1cn(CCNC(=O)[C@H](CCCNC(=N)N)NC(=O)[C@H](CC(C)C)NC(=O)C2OC2C(=O)O)nn1)NC(=O)CN1CCN(CC(=O)O)CCN(CC(=O)O)CCN(CC(=O)O)CC1)C(=O)N[C@H](C(=O)N[C@@H](CC(C)C)C(=O)O)C(C)(C)C (mixture of isomers) — fraction unbound (human): 0.924
C[C@]12CCCN1CC1=NNC(=O)c3cc(F)cc4[nH]c2c1c34 — EC50 (UWB1289 (BRCA1 deficient); cell growth, inhibitor, CellTiter-Glo; 7 days): 0.054 µM
Cn1cc(-c2ccc(-c3cncc(Cl)c3N3CCC4(CCNC4=O)CC3)cc2)cn1 — log2 fold change (COLO 205; gene expression, microarray, item: PNRC1 mRNA; concentration not given, 6 h; reference: untreated cells): 2.55
CC(C)(C)NC(=O)[C@@H]1C[C@@H]2CCCC[C@@H]2CN1C[C@@H](O)[C@H](Cc1ccccc1)NC(=O)[C@H](CC(N)=O)NC(=O)c1ccc2ccccc2n1 — EC50 (ΔE-expressing cells; ΔE mislocalization, high-content imaging): 7.52 µM
COC1=C(C)C(=O)c2cc(=O)n(C)c(C)c2C1=O — EC50 (786-0 HRE-luciferase reporter cells; reporter gene, inhibitor; 24 h): > 100 µM
CNc1ncc2c(/C=C/C(=O)N3CCC(OC)CC3)nn(Cc3cccc(C(F)(F)F)c3)c2n1 — EC50 (CP-A pre-malignant; cell viability, PrestoBlue; 120 h): 0.41 µM
O=C(O)CC[C@H](NC(=O)N[C@@H](CCCCNC(=O)[C@H](Cc1ccc2ccccc2c1)NC(=O)CCCCCNC(=O)CN1CCN(CC(=O)O)CCN(CC(=O)O)CCN(CC(=O)O)CC1)C(=O)O)C(=O)O [gallium-68 labelled] — tissue uptake (gamma counting; mouse, PC-3 xenograft, heart; intravenous, 3.7 MBq, 2 h): 4.57 ± 0.69 %ID/g
CN1CCN(c2ccc(Nc3ncc4cc(C#N)c(=O)n(C5CCCC5)c4n3)cc2)CC1 — IC50 (Cyclin-dependent kinase 5, with p25 (CDK5, Homo sapiens, UniProt Q00535)): 259 nM
CC(=O)O[C@H]1C(=O)[C@@]2(C)[C@H]([C@H](OC(=O)c3ccccc3)[C@]3(O)C[C@H](OC(=O)[C@H](O)[C@@H](NC(=O)c4ccccc4)c4ccccc4)C(C)=C1C3(C)C)[C@]1(OC(C)=O)CO[C@@H]1C[C@@H]2O — EC50 (EPC-2 pre-malignant; cell viability, PrestoBlue; 120 h): 0.00087 µM
CN1c2c([nH]c(N)nc2=O)NCC1CNc1ccc(C(=O)N[C@@H](CCC(=O)O)C(=O)O)cc1 (some centres unmarked) — EC50 (WA09 MTHFR C677T(+/−) forebrain tissues; neural rosette emergence rescue; together with: methotrexate 1 µM): 3.7 µM
CCn1cc(-c2cc(Cn3ccnc3)cc3c2CCN([C@H](c2cc(OC)ccn2)C2CC2)C3=O)c(C(F)(F)F)n1 — EC50 (C32; cell growth, inhibitor; 120 h): 19.6 µM
CC(C)NCC(O)c1ccc(NS(C)(=O)=O)cc1 (racemic) — QTc interval (male Hartley guinea pig, anaesthetized; intravenous infusion, 10 mg/kg, 10 min infusion, post-infusion): 382 ± 0.6 ms
C/C=C(/C)C(=O)O[C@H]1C(C)=C[C@]23C(=O)[C@@H](C=C(CO)[C@@H](O)[C@]12O)[C@H]1[C@@H](C[C@H]3C)C1(C)C — EC50 (B16-F10; cytotoxicity, PrestoBlue; MEM with 10% FBS; 30 min): 135 µM
CC(C)[C@H](NC(=O)[C@H](Cc1ccc(O)cc1)NC(=O)[C@H](Cc1ccc(O)cc1)NC(=O)[C@@H]1CCCN1C(=O)[C@H](CCC(=O)O)NC(=O)[C@H](CCC(=O)O)NC(=O)[C@H](Cc1c[nH]c2ccccc12)NC(=O)[C@@H]1CCCN1C(=O)[C@@H](NC(=O)[C@H](CCC(N)=O)NC(=O)c1ccc2c(c1)C(=O)OC21c2ccc(O)cc2Oc2cc(O)ccc21)C(C)C)C(=O)N[C@H](C(=O)N[C@@H](CCCCN)C(=O)N[C@@H](CCCCN)C(=O)N[C@@H](CO)C(=O)N[C@@H](CO)C(=O)NCC(=O)NCC(N)=O)C(C)C — plasma concentration (item: total compound; human, plasma; intravenous infusion, 500 mg, 15 min): 32200 ng/mL
CC(=O)OC[C@]12CCCC(C)(C)[C@@H]1CC[C@]1(C)[C@@H]2C[C@H]2OC(=O)[C@H]3[C@H](C(C)=O)[C@@H](O)C[C@@H]1[C@]23C — EC50 (786-0 HRE-luciferase reporter cells; reporter gene, inhibitor; 24 h): > 100 µM
CC(C)(C)NC(=O)[C@@H]1CN(Cc2cccnc2)CCN1C[C@@H](O)C[C@@H](Cc1ccccc1)C(=O)N[C@H]1c2ccccc2C[C@H]1O — EC50 (ΔE-expressing cells; ΔE mislocalization, high-content imaging): inactive
C[C@@]12CCCc3coc(c31)C(=O)c1cc3c(cc12)C(=O)C=CC3=O — EC50 (786-0 HRE-luciferase reporter cells; reporter gene, inhibitor; 24 h): > 100 µM
COc1cnc2cccc(N3CCc4c(cc(Cn5ccnc5C)cc4-c4cn(C)nc4C(F)(F)F)C3=O)c2c1 — EC50 (SNU668; cell growth, inhibitor; 120 h): 0.298 µM
Cc1cccc(C)c1OCC(=O)N[C@@H](Cc1ccccc1)[C@@H](O)C[C@H](Cc1ccccc1)NC(=O)[C@H](C(C)C)N1CCCNC1=O — EC50 (ΔE-expressing cells; ΔE mislocalization, high-content imaging): 4.69 µM
CC(C)C[C@H](NC(=O)C[C@H](O)[C@H](CC(C)C)NC(=O)[C@H](Cc1c[nH]cn1)NC(=O)CNC(=O)[C@@H](NC(=O)[C@H](C)NC(=O)[C@H](Cc1c[nH]c2ccccc12)NC(=O)[C@H](CCC(N)=O)NC(=O)[C@@H](Cc1ccccc1)NC(=O)COCCOCCNC(=O)CCC(C(=O)O)N1CCN(CC(=O)O)CCN(CC(=O)O)CCN(CC(=O)O)CC1)C(C)C)C(N)=O (some centres unmarked) [lutetium-177 labelled] — tissue uptake (BALB/c nu/nu mice, carcass; 500 pmol, 1 h, together with: PA 300 µg): 3 ± 1 %ID

Repeated from above:
COC1=C(C)C(=O)c2cc(=O)n(C)c(C)c2C1=O — EC50 (786-0 HRE-luciferase reporter cells; reporter gene, inhibitor; 24 h): > 100 µM
CNc1ncc2c(/C=C/C(=O)N3CCC(OC)CC3)nn(Cc3cccc(C(F)(F)F)c3)c2n1 — EC50 (CP-A pre-malignant; cell viability, PrestoBlue; 120 h): 0.41 µM
O=C(O)CC[C@H](NC(=O)N[C@@H](CCCCNC(=O)[C@H](Cc1ccc2ccccc2c1)NC(=O)CCCCCNC(=O)CN1CCN(CC(=O)O)CCN(CC(=O)O)CCN(CC(=O)O)CC1)C(=O)O)C(=O)O [gallium-68 labelled] — tissue uptake (gamma counting; mouse, PC-3 xenograft, heart; intravenous, 3.7 MBq, 2 h): 4.57 ± 0.69 %ID/g
